Published values pooled from the literature.
± gives the spread as reported.
NTSR1: Neurotensin receptor type 1 (NTSR1, Homo sapiens, UniProt P30989)
Chain of UniProt P30989 (whole entry, looked up): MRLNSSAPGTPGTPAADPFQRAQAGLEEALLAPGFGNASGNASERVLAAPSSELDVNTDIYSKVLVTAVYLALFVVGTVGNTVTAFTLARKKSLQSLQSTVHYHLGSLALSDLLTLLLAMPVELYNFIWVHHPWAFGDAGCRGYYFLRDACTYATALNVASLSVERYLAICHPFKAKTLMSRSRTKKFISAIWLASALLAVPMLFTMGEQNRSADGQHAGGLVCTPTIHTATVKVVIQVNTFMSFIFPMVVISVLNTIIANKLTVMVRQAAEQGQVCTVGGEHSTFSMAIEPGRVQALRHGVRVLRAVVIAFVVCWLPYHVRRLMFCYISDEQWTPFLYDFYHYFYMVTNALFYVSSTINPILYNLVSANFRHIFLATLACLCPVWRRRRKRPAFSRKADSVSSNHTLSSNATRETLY
TDP1: Tyrosyl-DNA phosphodiesterase 1 (TDP1, Homo sapiens, UniProt Q9NUW8)
Chain of UniProt Q9NUW8 (whole entry, looked up): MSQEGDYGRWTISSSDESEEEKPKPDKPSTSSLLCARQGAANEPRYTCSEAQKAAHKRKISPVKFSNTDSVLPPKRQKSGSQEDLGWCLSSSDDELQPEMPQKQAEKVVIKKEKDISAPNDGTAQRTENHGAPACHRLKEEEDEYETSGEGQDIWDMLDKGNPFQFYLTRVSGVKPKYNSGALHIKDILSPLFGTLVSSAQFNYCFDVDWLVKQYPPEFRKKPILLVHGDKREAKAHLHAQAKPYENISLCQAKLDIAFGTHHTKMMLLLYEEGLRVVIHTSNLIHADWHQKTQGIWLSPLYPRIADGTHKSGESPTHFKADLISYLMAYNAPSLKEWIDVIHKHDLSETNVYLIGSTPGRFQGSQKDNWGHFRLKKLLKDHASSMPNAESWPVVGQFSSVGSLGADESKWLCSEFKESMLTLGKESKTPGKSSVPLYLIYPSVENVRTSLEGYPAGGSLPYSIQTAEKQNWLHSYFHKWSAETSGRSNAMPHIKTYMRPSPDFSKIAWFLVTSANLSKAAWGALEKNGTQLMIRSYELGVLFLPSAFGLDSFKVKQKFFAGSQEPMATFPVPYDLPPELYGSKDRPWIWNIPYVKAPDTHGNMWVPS
CHRM5: Muscarinic acetylcholine receptor M5 (CHRM5, Homo sapiens, UniProt P08912)
Chain of UniProt P08912 (whole entry, looked up): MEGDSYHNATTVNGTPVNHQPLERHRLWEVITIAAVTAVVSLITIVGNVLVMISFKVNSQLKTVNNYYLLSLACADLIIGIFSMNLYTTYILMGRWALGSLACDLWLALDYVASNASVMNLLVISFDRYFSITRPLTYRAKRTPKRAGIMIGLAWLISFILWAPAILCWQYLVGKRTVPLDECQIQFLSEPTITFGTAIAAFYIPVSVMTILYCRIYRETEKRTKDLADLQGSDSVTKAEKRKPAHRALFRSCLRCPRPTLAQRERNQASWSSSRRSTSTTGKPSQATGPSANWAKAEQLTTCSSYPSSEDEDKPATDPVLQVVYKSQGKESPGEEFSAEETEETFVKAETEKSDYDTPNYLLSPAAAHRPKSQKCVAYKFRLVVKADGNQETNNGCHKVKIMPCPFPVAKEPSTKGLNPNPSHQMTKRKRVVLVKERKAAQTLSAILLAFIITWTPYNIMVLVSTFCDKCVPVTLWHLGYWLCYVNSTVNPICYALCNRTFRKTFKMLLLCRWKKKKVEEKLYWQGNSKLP
Chain of UniProt Q9UKP6 (whole entry, looked up): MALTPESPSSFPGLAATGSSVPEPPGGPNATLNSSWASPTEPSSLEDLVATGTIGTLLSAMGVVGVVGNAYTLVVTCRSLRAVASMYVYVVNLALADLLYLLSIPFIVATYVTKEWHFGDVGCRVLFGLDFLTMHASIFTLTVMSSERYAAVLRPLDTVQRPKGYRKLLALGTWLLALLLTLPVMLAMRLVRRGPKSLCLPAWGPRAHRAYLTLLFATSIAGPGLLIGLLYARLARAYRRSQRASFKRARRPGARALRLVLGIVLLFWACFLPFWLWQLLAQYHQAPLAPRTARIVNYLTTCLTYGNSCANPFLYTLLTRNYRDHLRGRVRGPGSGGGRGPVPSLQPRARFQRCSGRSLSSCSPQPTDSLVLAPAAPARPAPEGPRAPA
Chain of UniProt O09047 (whole entry, looked up): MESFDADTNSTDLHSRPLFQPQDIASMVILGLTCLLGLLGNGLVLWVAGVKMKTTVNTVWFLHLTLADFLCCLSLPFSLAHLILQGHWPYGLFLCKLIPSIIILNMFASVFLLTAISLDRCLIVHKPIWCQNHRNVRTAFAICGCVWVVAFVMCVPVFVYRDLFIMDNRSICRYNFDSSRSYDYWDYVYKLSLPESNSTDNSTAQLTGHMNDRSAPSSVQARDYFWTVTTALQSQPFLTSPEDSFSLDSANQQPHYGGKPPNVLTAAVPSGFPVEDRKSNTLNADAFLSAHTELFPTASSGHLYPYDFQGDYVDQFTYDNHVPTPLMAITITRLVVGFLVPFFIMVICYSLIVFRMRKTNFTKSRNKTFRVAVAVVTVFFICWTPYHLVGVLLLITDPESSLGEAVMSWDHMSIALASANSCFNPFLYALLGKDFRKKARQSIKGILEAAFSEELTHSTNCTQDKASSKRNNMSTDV
Chain of UniProt Q9NSD7 (whole entry, unmodified, looked up): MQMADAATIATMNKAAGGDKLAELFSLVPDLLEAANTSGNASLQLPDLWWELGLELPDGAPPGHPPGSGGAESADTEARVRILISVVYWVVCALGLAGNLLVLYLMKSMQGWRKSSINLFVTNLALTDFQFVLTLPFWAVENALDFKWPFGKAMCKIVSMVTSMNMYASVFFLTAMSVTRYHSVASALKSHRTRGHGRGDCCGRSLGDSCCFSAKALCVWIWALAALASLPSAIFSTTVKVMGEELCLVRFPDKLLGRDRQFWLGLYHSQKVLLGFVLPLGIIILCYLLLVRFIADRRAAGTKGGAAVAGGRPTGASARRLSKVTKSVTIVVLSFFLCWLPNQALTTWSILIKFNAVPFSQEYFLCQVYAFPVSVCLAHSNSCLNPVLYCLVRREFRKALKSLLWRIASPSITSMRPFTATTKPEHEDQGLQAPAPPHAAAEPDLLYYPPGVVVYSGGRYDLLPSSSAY
Chain of UniProt Q969F8 (whole entry, unmodified, looked up): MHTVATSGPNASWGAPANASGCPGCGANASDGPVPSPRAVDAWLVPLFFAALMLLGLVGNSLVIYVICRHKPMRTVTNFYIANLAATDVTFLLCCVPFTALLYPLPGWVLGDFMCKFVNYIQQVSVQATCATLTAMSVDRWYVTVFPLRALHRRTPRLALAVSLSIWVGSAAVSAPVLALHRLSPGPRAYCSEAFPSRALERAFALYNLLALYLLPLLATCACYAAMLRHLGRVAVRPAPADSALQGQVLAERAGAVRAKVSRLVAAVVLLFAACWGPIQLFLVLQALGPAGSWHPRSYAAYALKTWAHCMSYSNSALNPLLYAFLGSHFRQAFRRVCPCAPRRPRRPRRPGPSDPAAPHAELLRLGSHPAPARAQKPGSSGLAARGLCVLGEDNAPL
Chain of UniProt Q8TDS7 (whole entry, looked up): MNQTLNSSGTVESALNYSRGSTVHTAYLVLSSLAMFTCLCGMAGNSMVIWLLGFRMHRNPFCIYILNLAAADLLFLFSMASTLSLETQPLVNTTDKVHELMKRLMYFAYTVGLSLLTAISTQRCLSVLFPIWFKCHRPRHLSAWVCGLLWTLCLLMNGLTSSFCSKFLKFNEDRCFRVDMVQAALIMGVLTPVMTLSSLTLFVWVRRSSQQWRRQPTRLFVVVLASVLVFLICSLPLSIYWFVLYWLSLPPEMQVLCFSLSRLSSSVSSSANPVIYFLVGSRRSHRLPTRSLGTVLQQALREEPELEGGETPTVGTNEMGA
Chain of UniProt P20309 (whole entry, looked up): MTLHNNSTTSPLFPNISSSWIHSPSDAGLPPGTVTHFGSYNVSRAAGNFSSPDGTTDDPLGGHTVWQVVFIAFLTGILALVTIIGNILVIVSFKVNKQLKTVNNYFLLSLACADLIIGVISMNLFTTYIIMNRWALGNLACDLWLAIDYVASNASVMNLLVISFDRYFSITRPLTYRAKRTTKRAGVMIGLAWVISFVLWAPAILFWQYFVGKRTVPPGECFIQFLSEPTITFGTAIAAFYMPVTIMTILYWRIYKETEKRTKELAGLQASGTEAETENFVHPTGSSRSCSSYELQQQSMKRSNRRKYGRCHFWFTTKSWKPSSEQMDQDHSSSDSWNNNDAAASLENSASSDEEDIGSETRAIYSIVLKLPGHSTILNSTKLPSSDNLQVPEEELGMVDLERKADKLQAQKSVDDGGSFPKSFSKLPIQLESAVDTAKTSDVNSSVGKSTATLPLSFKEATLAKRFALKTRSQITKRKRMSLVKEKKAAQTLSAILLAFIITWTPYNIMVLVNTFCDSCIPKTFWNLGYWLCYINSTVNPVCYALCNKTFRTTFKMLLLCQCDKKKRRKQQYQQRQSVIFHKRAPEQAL

SMILES	target	assay	test system	conditions	scale	quantity	result
CNC(=N)NCCC[C@H](NC(=O)[C@H](CC(C)C)NC(=O)NNC(=O)[C@H](Cc1ccccc1)NC(=O)[C@@H](NC(=O)[C@H](CC(N)=O)NC(=O)[C@@H]1C[C@@H](O)CN1C(=O)[C@@H](Cc1ccc(O)cc1)NC(C)=O)[C@@H](C)O)C(=O)N[C@@H](Cc1c[nH]c2ccccc12)C(N)=O	KiSS-1 receptor (KISS1R, Homo sapiens, UniProt Q969F8, S243A)	inositol phosphate, agonist	HEK293	–	–	Emax	55.3%
CCCCOc1ccc(C(=O)OCCN2CC=CCC2)cc1	CHRM3 (Homo sapiens, UniProt P20309)	–	membranes	10 µM, 15 h, added: carbachol	relative to: control	Emax	1.41 ± 0.09 fold
CC(C)C[C@H](NC(=O)[C@@H](N)[C@@H](C)O)C(=O)N[C@@H](CCC(N)=O)C(=O)N1CCC[C@H]1C(=O)N1CCC[C@H]1C(=O)N[C@@H](C)C(=O)N[C@@H](CO)C(=O)N[C@@H](CO)C(=O)N[C@@H](CCCNC(=N)N)C(=O)N[C@@H](CCCNC(=N)N)C(=O)N[C@@H](CCCNC(=N)N)C(=O)N[C@@H](Cc1c[nH]cn1)C(=O)N[C@@H](Cc1ccccc1)C(=O)N[C@@H](Cc1c[nH]cn1)C(=O)N[C@@H](Cc1c[nH]cn1)C(=O)N[C@@H](C)C(=O)N[C@@H](CC(C)C)C(=O)N1CCC[C@H]1C(=O)N1CCC[C@H]1C(=O)N[C@@H](C)C(=O)N[C@@H](CCCNC(=N)N)C(=O)O	C3a anaphylatoxin chemotactic receptor (C3ar1, Mus musculus, UniProt O09047)	cAMP response, agonist, GloSensor	–	–	relative to: TLQP-21	Emax	58.4 ± 0.76%
CC(C)[C@H](NC(=O)[C@@H]1CSSC(C)(C)[C@H](NC(=O)[C@@H](N)CC(=O)O)C(=O)N[C@@H](Cc2ccccc2)C(=O)N[C@H](Cc2c[nH]c3ccccc23)C(=O)N[C@@H](CCCN)C(=O)N[C@@H](Cc2ccc(O)cc2)C(=O)N1)C(=O)O	UTS2R (Homo sapiens, UniProt Q9UKP6)	β-arrestin recruitment, agonist	HEK293	–	–	Emax	14.9%
COc1ccccc1C1CCN(c2nc(C3(F)CC3)nc3ccc(N(C)CCN4CCOCC4)cc23)CC1	NTSR1	β-arrestin recruitment, agonist	HEK-293T	–	–	Emax	83.9%
O=C(O)c1ccc(Nc2c(-c3ccccc3)nc3ccc(CON=Cc4cccn4-c4nccc(-c5cccs5)n4)cn23)cc1 (mixture of isomers)	TDP1	enzyme activity, inhibitor	–	100 µM, unpurified compound	–	inhibition	49.7%
COc1ccccc1C1CCN(c2nc(C3(F)CC3)nc3c(Cl)cc(N(C)CCO)cc23)CC1	NTSR1	β-arrestin recruitment, agonist	HEK-293T	–	–	Emax	93.8%
CCCCOc1ccc(C(=O)OCC[N+]2(C)CC=CCC2)cc1 (stereo not drawn)	CHRM5	–	membranes	1 µM, 15 h, added: carbachol	relative to: control	Emax	1.48 ± 0.08 fold
COc1ccc(C2(C(=O)N3CCC(Nc4nc5ccccc5c(=O)[nH]4)CC3)CC2)cc1	MRGPRD, part with Gi1 (Homo sapiens, UniProt Q8TDS7)	Gi1 dissociation, agonist, BRET2	–	–	relative to: wild type	Emax	87.8 ± 16.4%
O=C(O)c1ccc(Nc2c(-c3ccc(CON=Cc4ccc(CN5CCCCC5)cc4)cc3)nc3cc(-c4ccccc4)ccn23)cc1	TDP1	enzyme activity, inhibitor	–	100 µM, unpurified compound	–	inhibition	82.5%
CC[C@H](C)[C@@H]1NC(=O)[C@H](Cc2ccccc2)NC(=O)[C@H](CCC(=O)O)NC(=O)[C@H](CCCNC(=N)N)NC(=O)CNC(=O)[C@@H](NC(=O)[C@H](CC(C)C)NC(=O)[C@H](CCCNC(=N)N)NC(=O)[C@@H](NC(=O)CNC(=O)[C@H](Cc2ccc(O)cc2)NC(=O)[C@@H]2CCCN2C(=O)[C@H](C)NC(=O)[C@H](C)NC(=O)[C@@H](N)CCCNC(=N)N)C(C)C)CSSC[C@@H]2NC(=O)[C@@H](NC(=O)[C@H](CO)NC(=O)[C@H](CO)NC(=O)[C@H](CO)NC(=O)[C@H](CC(C)C)NC(=O)CNC(=O)[C@H](C)NC(=O)[C@H](CC(C)C)NC(=O)[C@@H](NC(=O)[C@@H](N)CC(=O)O)C(C)C)CSSC[C@H](NC(=O)CNC(=O)[C@H](Cc3c[nH]c4ccccc34)NC(=O)[C@H](CCCCN)NC2=O)C(=O)N[C@@H](CO)C(=O)N[C@@H](CCCCN)C(=O)N[C@@H](CO)C(=O)N[C@@H](CCC(=O)O)C(=O)N[C@@H]([C@@H](C)CC)C(=O)N[C@@H](CO)C(=O)N[C@@H](CO)C(=O)N[C@@H](CC(C)C)C(=O)N[C@H](C(=O)O)CSSC[C@@H](C(=O)NCC(=O)NCC(=O)N[C@@H](CO)C(=O)N[C@@H](CCCNC(=N)N)C(=O)N[C@@H](Cc2c[nH]c3ccccc23)C(=O)O)NC(=O)[C@H]([C@@H](C)O)NC(=O)[C@H](Cc2ccccc2)NC(=O)[C@H]([C@@H](C)CC)NC(=O)[C@H](C(C)C)NC(=O)[C@H](C)NC(=O)[C@H](CCCNC(=N)N)NC1=O	RXFP3 (Homo sapiens, UniProt Q9NSD7, F131A)	–	HEK-293T	–	relative to: wild type	Emax	83.2 ± 4.19%
C=CCn1c(=O)c2ccccc2n2c(SCC(=O)Nc3ccc(NC(C)=O)cc3)nnc12	CHRM5	receptor activation, agonist	–	concentration not given, 16 h	–	Emax	< 100%

Repeated from above:
SMILES	target	assay	test system	conditions	scale	quantity	result
O=C(O)c1ccc(Nc2c(-c3ccc(CON=Cc4ccc(CN5CCCCC5)cc4)cc3)nc3cc(-c4ccccc4)ccn23)cc1	TDP1	enzyme activity, inhibitor	–	100 µM, unpurified compound	–	inhibition	82.5%
CC[C@H](C)[C@@H]1NC(=O)[C@H](Cc2ccccc2)NC(=O)[C@H](CCC(=O)O)NC(=O)[C@H](CCCNC(=N)N)NC(=O)CNC(=O)[C@@H](NC(=O)[C@H](CC(C)C)NC(=O)[C@H](CCCNC(=N)N)NC(=O)[C@@H](NC(=O)CNC(=O)[C@H](Cc2ccc(O)cc2)NC(=O)[C@@H]2CCCN2C(=O)[C@H](C)NC(=O)[C@H](C)NC(=O)[C@@H](N)CCCNC(=N)N)C(C)C)CSSC[C@@H]2NC(=O)[C@@H](NC(=O)[C@H](CO)NC(=O)[C@H](CO)NC(=O)[C@H](CO)NC(=O)[C@H](CC(C)C)NC(=O)CNC(=O)[C@H](C)NC(=O)[C@H](CC(C)C)NC(=O)[C@@H](NC(=O)[C@@H](N)CC(=O)O)C(C)C)CSSC[C@H](NC(=O)CNC(=O)[C@H](Cc3c[nH]c4ccccc34)NC(=O)[C@H](CCCCN)NC2=O)C(=O)N[C@@H](CO)C(=O)N[C@@H](CCCCN)C(=O)N[C@@H](CO)C(=O)N[C@@H](CCC(=O)O)C(=O)N[C@@H]([C@@H](C)CC)C(=O)N[C@@H](CO)C(=O)N[C@@H](CO)C(=O)N[C@@H](CC(C)C)C(=O)N[C@H](C(=O)O)CSSC[C@@H](C(=O)NCC(=O)NCC(=O)N[C@@H](CO)C(=O)N[C@@H](CCCNC(=N)N)C(=O)N[C@@H](Cc2c[nH]c3ccccc23)C(=O)O)NC(=O)[C@H]([C@@H](C)O)NC(=O)[C@H](Cc2ccccc2)NC(=O)[C@H]([C@@H](C)CC)NC(=O)[C@H](C(C)C)NC(=O)[C@H](C)NC(=O)[C@H](CCCNC(=N)N)NC1=O	RXFP3 (Homo sapiens, UniProt Q9NSD7, F131A)	–	HEK-293T	–	relative to: wild type	Emax	83.2 ± 4.19%
